Published values from different studies.
Protocols differ between the studies behind these lines. ± gives the spread as reported.

SMILES	cell line	test	test system	setting	measurement	value
Oc1ccc(C2(c3ccc(O)cc3)c3ccccc3-c3ccccc32)cc1	HepG2 spheroids, dissociated	annexin V-FITC/PI flow cytometry	–	0.01 µM, 96 h	early apoptotic cells	5.25 ± 2.36%
Cc1cc(C)c2c(N)c(C(=O)Nc3cccnc3)sc2n1	MDA-MB-231	MTT	–	100 µM, 72 h	viability	55 ± 6%
O=C(Nc1cnccc1Cl)N1CCN(Cc2ccc3c(c2)OC(F)(F)O3)CC1	COS cells expressing human FAAH	–	COS cell culture supernatant	100 nM, 0 h	concentration	84.4 ± 7.1 nM
CC(C)CC(=O)OC[C@H]1O[C@@](C#N)(c2ccc3c(N)ncnn23)[C@H](O)[C@@H]1O	Caco-2	–	–	90 µM, 2 h	efflux ratio	2.62
Cc1cc(C)c(C#N)c(SCC(=O)NCc2ccccc2)n1	MDA-MB-231	MTT	–	100 µM, 72 h	viability	64 ± 7%
CN(C(=O)n1cnc(-c2ccc[n+]([O-])c2)c1)C1CCCCC1	COS cells expressing human FAAH	–	cell lysate	100 nM, 1 h, quantification limit 5 nM	compound concentration	not detected
CC(c1ccccc1)(c1ccc(O)cc1)c1ccc(O)cc1	HepG2 spheroids	annexin V-FITC/PI flow cytometry	–	0.10 µM, 96 h	late apoptotic cells	36.3 ± 27.6%
O=c1ccc2ccccc2o1	HepaRG 3D spheroids	steatosis	–	168 h, high-content imaging	point of departure	752 µM
O=C(Nc1cccnn1)N1CCC(=Cc2cccc(Oc3ccc(C(F)(F)F)cn3)c2)CC1	COS cells expressing human FAAH	–	COS cell culture supernatant	100 nM, 24 h	concentration	49.4 ± 2.9 nM
COCCOCCOCCNC(=O)CSc1nc(-c2ccccc2)cc(C)c1C#N	MDA-MB-231	MTT	–	100 µM, 72 h	viability	55 ± 9%
